Measured values collected from several papers.
Compare with care: the assays were run in different laboratories.
Target: Tyrosine-protein kinase Yes (YES1, Homo sapiens, UniProt P07947)

SMILES	test	system	conditions	scale	endpoint	result
Cc1cccc(-c2ccc3nc(NC(=O)C4CCCO4)nn3c2)c1 (stereo not drawn)	enzyme activity, Dundee kinase panel		10 µM		remaining activity	89%
Cc1ccc(C(=O)Nc2ccc(CN3CCN(C)CC3)c(C(F)(F)F)c2)cc1C#Cc1cnc2cccnn12	target engagement, NanoBRET	human cells			Hill slope	0.246
O=c1c(-c2ccc(Cl)c(CN3CCOCC3)c2)coc2cc(O)ccc12	enzyme activity, inhibitor		1 µM		remaining activity	94%
C=CC(=O)Nc1cc(-c2nn(C3CCN(CCNC(=O)[C@H](C)CCC45CC6CC(CC(C6)C4)C5)CC3)c3ncnc(N)c23)ccc1Oc1ccccc1	inhibitor, KiNativ profiling	biochemical	2 µM		inhibition	84.9%
CN1CC[C@@H](COc2cnc(C#N)cc2-c2ccn3nc(NC(=O)C4CC4)cc3c2)C1	enzyme activity, inhibitor		1 µM		inhibition	81%
Cc1ccc(C)c(-c2ccc3nc(NC(=O)C4CCCCC4)nn3c2)c1	enzyme activity, Dundee kinase panel		10 µM		remaining activity	101%
Cc1cccc(O[C@H]2CCC[C@@H](C(C)CNCc3ccncc3)C2)c1 (relative stereo)	enzyme activity, inhibitor		10 µM		inhibition	-3%
C=CC(=O)N1CCCC(n2c(=O)c3ncccc3n(Cc3ccc(Oc4ccccc4)cc3)c2=O)C1 (stereo not drawn)	cell-free assay, competition with immobilised ligand		1 µM		remaining binding	86%
Cc1ccc(-c2c(/C=C(\C#N)C(=O)NC(C)C)n(CCCO)c3ncnc(N)c23)cc1	cell-free assay, competition with immobilised ligand		1 µM		remaining binding	81%
C=CC(=O)N1Cc2nc(-c3cc(-c4cc(Cl)cnc4Cl)c(F)cc3F)n(-c3ccncn3)c2C1	cell-free assay, inhibitor		1 µM		inhibition	8.5%
Nc1nc(Nc2ccccc2)sc1C(=O)c1ccccc1	enzyme activity, inhibitor		10 µM		remaining activity	25%
C=CC(=O)Nc1cccc(-c2cnc3[nH]cc(C(=O)NC(C)(C)C)c3n2)c1	enzyme activity, inhibitor		0.1 µM		inhibition	15%
CNC(=O)C1CCN(c2cc(C)c(F)cc2NC(=O)c2ccc(-c3cc(O)ccc3C)c(C)c2)CC1	binding, competition with immobilised ligand		1 µM		remaining binding	1.1%
NC(=O)C[C@H]1CCc2sc3ncnc(O[C@H]4CC[C@H](N5CCOCC5)CC4)c3c21	enzyme activity, inhibitor		10 µM		inhibition	11%
O=C(Nc1ccc(Oc2ncnc3[nH]cc(-c4ccccc4)c23)c(F)c1)c1c2n(n(-c3cc(F)ccc3F)c1=O)CCCC2	enzyme activity, inhibitor		0.5 µM		inhibition	-13%
CCn1cc(C(=O)O)c(=O)c2c(N)c(F)c(NC3CCCCC3)cc21	kinase activity		0.1 µM, added: ATP at Km		inhibition	-11.5%
COc1cc(Nc2nccc(-c3cnn4nc(OC)ccc34)n2)cc(C(F)(F)F)c1	binding, competition with immobilised ligand		1 µM		remaining binding	99%
CNC1C[S+]2CC[S+]3CC[S+](C1)[Ru-4]321([N]=C=S)[n]2c3ccc(OC)cc3c3c4c(c5cc(F)c[n+]1c5c32)C(=O)NC4=O (stereo not drawn)	KinomeScan		0.1 µM	reference: untreated	remaining binding	100%
C[C@H]1CN(C(=O)c2cn(-c3ccnc(N)n3)c3cc(C#CC4(O)CCCCC4)ccc23)CCN1	enzyme activity, inhibitor, FRET		1 µM		inhibition	-1%
Nc1ncc(-c2cc(-c3cnn(CC(F)(F)F)c3)ncc2F)nc1C(=O)NC1CNCC(F)C1 (stereo not drawn)	enzyme activity		1 µM	reference: DMSO control	remaining activity	81.2%
CCN1CCN(Cc2ccc(NC(=O)c3ccc(C)c(NC(=O)c4cncc(-c5cnn(C)c5)c4)c3)cc2C(F)(F)F)CC1	binding, competition with immobilised ligand		1 µM		remaining binding	1.6%

For quick reference, copied from above:
SMILES	test	system	conditions	scale	endpoint	result
Cc1cccc(-c2ccc3nc(NC(=O)C4CCCO4)nn3c2)c1 (stereo not drawn)	enzyme activity, Dundee kinase panel		10 µM		remaining activity	89%
